{"data": "Results from different studies", "cell line": "human neutrophils", "note": "Compare with care: the assays were run in different laboratories. ± gives the spread as reported."}
{"Molecule": "COc1cccc(Cc2cc(C)nn([C@@H](C)C(=O)Nc3ccc(Br)cc3)c2=O)c1", "test": "calcium mobilization, agonist", "measurement": "EC50", "result": "4900 nM"}
{"Molecule": "COc1cccc(Nc2c(C(=O)C3CCCCC3)c(C)nn(CC(=O)Nc3ccc(Br)cc3)c2=O)c1", "test": "calcium flux, agonist", "measurement": "EC50", "result": "28900 ± 6600 nM"}
{"Molecule": "C[C@H](CCC(=O)O)[C@H]1CC[C@H]2[C@@H]3CC[C@@H]4C[C@H](O)CC[C@]4(C)[C@H]3C[C@H](O)[C@]12C", "test": "calcium mobilization", "setting": "30 min, with: fMLF 5 nM", "measurement": "IC50", "result": "32.6 ± 3.3 µM"}
{"Molecule": "COc1ccccc1C1C(C(=O)c2ccc(C)cc2)=C(O)C(=O)N1CC(C)O (stereo not drawn)", "test": "adhesion to T84 cells", "setting": "50 µM, with: fMLF 10 nM", "measurement": "adhesion inhibition", "result": "inactive"}
{"Molecule": "COc1cccc(Cc2c(C)c(C)nn(CC(=O)Nc3ccc(Br)cc3)c2=O)c1", "test": "chemotaxis, agonist", "setting": "1 h", "measurement": "EC50", "result": "270 ± 60 nM"}
{"Molecule": "(+)-episesamin", "test": "calcium flux, antagonist", "setting": "30 min pretreatment, room temperature, with: 5 nM fMLF", "measurement": "IC50", "result": "30.4 ± 2.6 µM"}
{"Molecule": "COc1ccc(C2(CNC(=O)[C@](C)(Cc3c[nH]c4ccccc34)NC(=O)Nc3ccc([N+](=O)[O-])cc3)CCCCC2)nc1", "test": "calcium mobilisation, agonist", "setting": "with: 2.5 mM probenecid", "measurement": "EC50", "result": "210 ± 67 nM"}
{"Molecule": "COc1ccc(Cc2c(C)c(C)nn(CC(=O)Nc3ccc(Br)cc3)c2=O)cc1", "test": "chemotaxis, agonist", "setting": "1 h", "measurement": "EC50", "result": "510 ± 110 nM"}
{"Molecule": "CCC(C(=O)Nc1ccc(Br)cc1)n1nc(C)cc(Cc2cccc(OC)c2)c1=O (racemic)", "test": "calcium mobilization, agonist", "measurement": "EC50", "result": "1800 nM"}
{"Molecule": "CC1(C)CC[C@]2(C(=O)O)CC[C@]3(C)C(=CC[C@@H]4[C@@]5(C)CC[C@H](O)C(C)(C)[C@@H]5CC[C@]43C)[C@@H]2C1", "test": "calcium mobilization", "setting": "30 min, with: fMLF 5 nM", "measurement": "IC50", "result": "1.5 ± 0.18 µM"}
{"Molecule": "C[C@@](Cc1c[nH]c2ccccc12)(NC(=O)Nc1ccc([N+](=O)[O-])cc1)C(=O)NCC1(c2ccccn2)CCCCC1", "test": "calcium mobilisation, agonist", "setting": "without probenecid", "measurement": "EC50", "result": "910 ± 260 nM"}
{"Molecule": "CCCCCc1c(C)nn(CC(=O)Nc2ccc(Br)cc2)c(=O)c1Nc1cccc(OC)c1", "test": "calcium flux, agonist", "measurement": "EC50", "result": "5700 ± 1200 nM"}
{"note": "Excerpt of the above:"}
{"Molecule": "COc1cccc(Cc2c(C)c(C)nn(CC(=O)Nc3ccc(Br)cc3)c2=O)c1", "test": "chemotaxis, agonist", "setting": "1 h", "measurement": "EC50", "result": "270 ± 60 nM"}
{"Molecule": "(+)-episesamin", "test": "calcium flux, antagonist", "setting": "30 min pretreatment, room temperature, with: 5 nM fMLF", "measurement": "IC50", "result": "30.4 ± 2.6 µM"}
